{"data": "Measurements gathered from unrelated publications", "note": "Every numbered part comes from another study and shows a few of its results, in no order. “And” joins repeats or separate records; there may be more than shown. ± gives the spread as reported."}
{"data": "Block 1", "target": "C-X-C chemokine receptor type 4 (CXCR4, Homo sapiens, UniProt P61073)", "read-out": "ligand displacement", "technique": "radioligand", "chain of UniProt P61073 (whole entry, looked up)": "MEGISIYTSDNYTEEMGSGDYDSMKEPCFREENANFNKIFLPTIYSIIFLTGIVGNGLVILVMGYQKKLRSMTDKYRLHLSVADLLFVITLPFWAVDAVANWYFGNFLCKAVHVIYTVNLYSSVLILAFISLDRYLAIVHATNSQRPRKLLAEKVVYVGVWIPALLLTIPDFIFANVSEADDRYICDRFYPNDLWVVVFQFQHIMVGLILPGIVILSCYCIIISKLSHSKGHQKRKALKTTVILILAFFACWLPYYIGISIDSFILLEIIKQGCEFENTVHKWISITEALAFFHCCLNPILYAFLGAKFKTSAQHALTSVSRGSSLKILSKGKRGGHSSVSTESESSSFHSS"}
{"Compound": "CC(C)C[C@H](NC(=O)[C@H](CO)NC(=O)[C@@H](NC(=O)[C@@H]1CCCN1C(=O)[C@@H](N)CCCCN)C(C)C)C(=O)N[C@@H](CO)C(=O)N[C@@H](Cc1ccc(O)cc1)C(=O)N[C@@H](CCCNC(=N)N)C(=O)N[C@@H](CO)C(=O)N[C@@H](C)C(=O)NCCCC[C@H](NC(=O)[C@@H]1CSSC[C@H](NC(=O)[C@H](Cc2ccc3ccccc3c2)NC(=O)[C@H](CCCNC(=N)N)NC(=O)[C@@H](N)CCCNC(=N)N)C(=O)N[C@@H](Cc2ccc(O)cc2)C(=O)N[C@@H](CCCNC(=N)N)C(=O)N[C@@H](CCCCN)C(=O)N[C@H](CCCCN)C(=O)N2CCC[C@H]2C(=O)N[C@@H](Cc2ccc(O)cc2)C(=O)N[C@@H](CCCNC(=N)N)C(=O)N[C@@H](CCCNC(=N)N)C(=O)N1)C(=O)O", "IC50": "24.9 nM"}
{"Compound": "CC(C)C[C@H](NC(=O)[C@H](CO)NC(=O)[C@@H](NC(=O)[C@@H]1CCCN1C(=O)[C@@H](N)CCCCN)C(C)C)C(=O)N[C@@H](CO)C(=O)N[C@@H](Cc1ccc(O)cc1)C(=O)NCCCC[C@@H]1NC(=O)[C@H](CCCNC(=N)N)NC(=O)[C@H](Cc2ccc(O)cc2)NC(=O)[C@@H]2CCCN2C(=O)[C@@H](CCCCN)NC(=O)[C@H](CCCCN)NC(=O)[C@H](CCCNC(=N)N)NC(=O)[C@H](Cc2ccc(O)cc2)NC(=O)[C@@H](NC(=O)[C@H](Cc2ccc3ccccc3c2)NC(=O)[C@H](CCCNC(=N)N)NC(=O)[C@@H](N)CCCNC(=N)N)CSSC[C@@H](C(=O)N[C@@H](CCCNC(=N)N)C(=O)O)NC1=O", "IC50": "1.36 nM and 2.22 nM"}
{"Compound": "CC(C)C[C@H](NC(=O)[C@H](CO)NC(=O)[C@@H](NC(=O)[C@@H]1CCCN1C(=O)[C@@H](N)CCCCN)C(C)C)C(=O)N[C@@H](CO)C(=O)NCCCC[C@H](NC(=O)[C@@H]1CSSC[C@H](NC(=O)[C@H](Cc2ccc3ccccc3c2)NC(=O)[C@H](CCCNC(=N)N)NC(=O)[C@@H](N)CCCNC(=N)N)C(=O)N[C@@H](Cc2ccc(O)cc2)C(=O)N[C@@H](CCCNC(=N)N)C(=O)N[C@@H](CCCCN)C(=O)N[C@H](CCCCN)C(=O)N2CCC[C@H]2C(=O)N[C@@H](Cc2ccc(O)cc2)C(=O)N[C@@H](CCCNC(=N)N)C(=O)N[C@@H](CCCNC(N)=O)C(=O)N1)C(=O)O", "IC50": "62 nM"}
{"data": "Further values, each from its own experiment"}
{"Structure (SMILES)": "Cc1ccc(C(=O)N/N=C/c2cc(Br)ccc2OCC(=O)O)cc1", "test system": "male mice, pilocarpine-induced seizures", "conditions": "oral, 20 mg/kg, 24 h, dosed 30 min before pilocarpine, added: pilocarpine 300 mg/kg i.p.", "quantity": "survival", "result": "70%"}
{"Structure (SMILES)": "N=C(N)N[C@@H]1C[C@@H](C(=O)N[C@@H](Cc2ccc(O)cc2)C(N)=O)N(C(=O)CN(CCNC(=O)[C@H](CCCCNC(=O)c2cnccn2)NC(=O)[C@H](CCCCNC(=O)[C@H]2C[C@@H](N)CN2C(=O)CN(CCNC(=O)CN(CCN)C(=O)Cn2cnc3c(=O)[nH]c(N)nc32)C(=O)Cn2cnc3c(=O)[nH]c(N)nc32)NC(=O)[C@H]2C[C@@H](N)CN2C(=O)CN(CCNC(=O)CN(CCN)C(=O)Cn2cnc3c(=O)[nH]c(N)nc32)C(=O)Cn2cnc3c(=O)[nH]c(N)nc32)C(=O)Cn2cnc3c(=O)[nH]c(N)nc32)C1", "target or system": "HIV-1 RRE IIB RNA", "test": "binding, 2-aminopurine fluorescence displacement", "conditions": "pH 7.0", "quantity": "Kd", "result": "880 ± 20 nM"}
{"Structure (SMILES)": "O=C(O)COc1ccccc1/C=N/NC(=O)CNc1ccc(Cl)cc1", "test system": "male mice, pilocarpine-induced seizures", "conditions": "oral, 20 mg/kg, 24 h, dosed 30 min before pilocarpine, added: pilocarpine 300 mg/kg i.p.", "quantity": "survival", "result": "70%"}
{"Structure (SMILES)": "CC[C@H](C)[C@@H]1NC(=O)[C@H](C(C)C)NC(=O)[C@H](Cc2ccccc2)NC(=O)[C@H](Cc2ccccc2)NC(=O)[C@@H]2CCCN2C(=O)[C@@H]2CCCN2C(=O)[C@H]([C@@H](C)CC)NC(=O)[C@H](CC(C)C)NC(=O)[C@H](CC[S+](C)[O-])NC1=O (stereo partly drawn)", "target or system": "SK-BR-3", "test": "LDH release", "conditions": "400 µg/mL, 24 h", "quantity": "cytotoxicity", "result": "36%"}
{"Structure (SMILES)": "O=C(O)COc1ccc(Br)cc1C=NNC(=O)Cc1ccccc1 (mixture of isomers)", "test system": "mouse, serum", "conditions": "oral, 100 mg/kg, 48 h", "quantity": "CK-MB", "result": "42.6 ± 11 U/L"}
{"Structure (SMILES)": "O=C(O)COc1ccc(Br)cc1/C=N/NC(=O)CNc1ccc(Cl)cc1", "test system": "mice, PTZ-induced seizures", "conditions": "oral, 20 mg/kg, 24 h after PTZ", "quantity": "mortality", "result": "50%"}
{"note": "For quick reference, copied from above (further values, each from its own experiment):"}
{"Structure (SMILES)": "O=C(O)COc1ccccc1/C=N/NC(=O)CNc1ccc(Cl)cc1", "test system": "male mice, pilocarpine-induced seizures", "conditions": "oral, 20 mg/kg, 24 h, dosed 30 min before pilocarpine, added: pilocarpine 300 mg/kg i.p.", "quantity": "survival", "result": "70%"}
